Measured values pooled from the literature.
Parts stem from different laboratories: compare values within a part only. Changes are numbered by the printed parent chain.

Series 1
Target: Phosphate system positive regulatory protein PHO4, full length, GST-tagged (PHO4, Saccharomyces cerevisiae, UniProt P07270, residues 1-312)
Technique: competition protein-binding microarray
Molecule type: double-stranded DNA, one strand shown
Medium: in vitro
Tested at: 2 µM
Notes: whole 60-bp probe, lowest competitor level
Together with: Cbf1 competitor, 0.05 µM
Reading: higher = stronger binding
Endpoint: fluorescence intensity
Target sequence (chain): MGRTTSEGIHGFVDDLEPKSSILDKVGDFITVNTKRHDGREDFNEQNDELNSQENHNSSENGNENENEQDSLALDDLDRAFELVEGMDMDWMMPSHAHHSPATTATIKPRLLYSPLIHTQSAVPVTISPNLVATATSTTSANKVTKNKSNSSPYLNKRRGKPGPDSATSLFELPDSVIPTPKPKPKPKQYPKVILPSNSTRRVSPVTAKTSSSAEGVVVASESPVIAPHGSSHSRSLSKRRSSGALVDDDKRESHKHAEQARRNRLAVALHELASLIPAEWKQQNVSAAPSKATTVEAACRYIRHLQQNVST
GCCGCCAGGGCCTGGCGCGTGGCCGCCGCTCCTCTTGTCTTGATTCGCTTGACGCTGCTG: 7930 a.u.
CTAACGAAGGTTTGTCACGGTACTTACAAGCCAAGTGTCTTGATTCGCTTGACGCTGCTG: 3880 a.u.
GGCGTCGCTAGCTGGCACGGCACTGATTGCGGCGGGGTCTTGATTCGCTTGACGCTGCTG: 4160 a.u.
GCTCTTAAGTCCTCGGTCGTGATGGCGTCAGCCTGTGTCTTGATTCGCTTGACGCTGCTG: 4890 a.u.
CTTTCCCGATCTTGTCACGTGTTTTTAGCACATTTGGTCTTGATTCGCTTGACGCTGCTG: 13800 a.u.
ACCGCAGCACCGTTTCACATGTCCGTCTCTTTTGTTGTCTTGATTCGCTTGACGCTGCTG: 6900 a.u.
CTAACGAAGGTTTTTCACGTGTAGTACAAGCCAAGTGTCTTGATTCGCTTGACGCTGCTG: 11300 a.u.
GGAAAGCCTATTTCTCACGTTTTCCGGCACTTAATGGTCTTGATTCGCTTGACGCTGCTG: 9210 a.u.
CATAACCTTGCCTGCCAAGTGTGGCAAGCAATGACGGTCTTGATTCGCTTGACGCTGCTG: 5270 a.u.
GGTACGAGAATCGAACCCGTGTCCTCACCTTGGAAGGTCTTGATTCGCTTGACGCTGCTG: 8340 a.u.
GTCTTGTCTCATTGCCCCGTGGGTGTCCCCACTTCAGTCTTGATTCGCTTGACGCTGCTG: 11700 a.u.
CTTCTGTAAATTTGAAGAGTGGGTGGACGCGCCCCGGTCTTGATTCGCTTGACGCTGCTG: 4000 a.u.
CGCATTATGTTAAGCATTGCCATTGCGGTAACTTCAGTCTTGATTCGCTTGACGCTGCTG: 4070 a.u.
AAAGCGGTAATTTGTAACGTGGGTGCAGATATCTATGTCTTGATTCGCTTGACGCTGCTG: 9970 a.u.
AGCGGCATAAGTCGGCACGTCCCCTGAAAGTAGGCTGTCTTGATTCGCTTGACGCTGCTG: 7680 a.u.
CTAACGAAGGTTTGGCGTGTGGGTGACAAGCCAAGTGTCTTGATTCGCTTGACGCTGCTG: 6670 a.u.
TGCGCAACAACTTGATACGTGGGTGTATGTCTAGAAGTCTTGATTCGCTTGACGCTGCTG: 8380 a.u.
CTTCTTCGTTACAGTGACGTGAGATGTTCAGCAGTCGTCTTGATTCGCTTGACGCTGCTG: 4180 a.u.
CGTCCTAGCGATTGAGGTGTGGGTGCCATGAGGAAGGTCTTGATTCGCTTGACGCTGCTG: 7260 a.u.
GGATAATTTTCAGGACACGTGTTTCGAAAGGTTTGTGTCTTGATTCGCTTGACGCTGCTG: 19600 a.u.
ACTGTTATTTTGATGTACATGACAGTACGTTATTCTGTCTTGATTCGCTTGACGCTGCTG: 5420 a.u.
ACAAAATCGGCTTTTTACGTGACGGAAGAAGGTTAAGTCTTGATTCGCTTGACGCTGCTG: 3710 a.u.
CGTCCTAGTGATTTTCACGTGATTTCCATGAGGAAGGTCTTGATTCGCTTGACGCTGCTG: 9980 a.u.

Series 2
Target: CCNA2, cyclin fold, Cln2 fusion (human)
Technique: yeast growth competition, sequencing
Medium: yeast
Notes: weak parent motif
Relative to: not given
Reading: higher = stronger binding
Endpoint: normalised enrichment score
Parent: SLBP docking peptide (human); ARYKRKLLINDFG
ARYKRKLLINDFY [G13Y]: 1.38
GRYKRKLLINDFG [A1G]: 1.24
ARYKRKLLINDHG [F12H]: 0.602
HRYKRKLLINDFG [A1H]: 1.33
ARYKRKLCINDFG [L8C]: 0.615
ARYKRKLLIKDFG [N10K]: 1.67
ARYKRKLAINDFG [L8A]: 1.39
ARQKRKLLINDFG [Y3Q]: 0.69
ARYKRKLLIMDFG [N10M]: 1.28
ARYKRKLLINDWG [F12W]: 0.82
ARMKRKLLINDFG [Y3M]: 1.54
AIYKRKLLINDFG [R2I]: 1.34
ARYKRKELINDFG [L7E]: 0.145
YRYKRKLLINDFG [A1Y]: 1.23
ARYKRDLLINDFG [K6D]: 0.641
ARYKRKILINDFG [L7I]: -0.00511
ARYKRKLLINDIG [F12I]: 0.694
ARYKRKLLINDFC [G13C]: 0.925
WRYKRKLLINDFG [A1W]: 0.76
ARYKKKLLINDFG [R5K]: 0.954
ARYQRKLLINDFG [K4Q]: 1.16
ARYKRPLLINDFG [K6P]: 0.407
ARYKRKYLINDFG [L7Y]: 1.2
ARAKRKLLINDFG [Y3A]: 2.56
ARYKRALLINDFG [K6A]: 2

Series 3
Target: Histone acetyltransferase KAT6A, both winged helices, GST fusion (KAT6A, Homo sapiens, UniProt Q92794, residues 1-181)
Technique: protein binding microarray
Molecule type: double-stranded DNA, one strand shown
Medium: in vitro
Tested at: not given
Notes: 8-mer, flanks averaged, mean of 2 arrays, mostly near background
Relative to: not given
Reading: higher = stronger binding
Endpoint: E-score
Target sequence (chain): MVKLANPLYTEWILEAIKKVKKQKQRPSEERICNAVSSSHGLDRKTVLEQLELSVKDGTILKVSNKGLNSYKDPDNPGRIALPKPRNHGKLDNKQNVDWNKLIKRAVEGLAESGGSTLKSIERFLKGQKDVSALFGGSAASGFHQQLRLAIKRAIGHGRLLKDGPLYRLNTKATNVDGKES
AAATCTAT: 0.0171
GAAAGACC: -0.0525
AAGCGGAG: -0.0341
ACCATTAC: -0.0674
ACGACCAT: -0.261
AGCAATGA: -0.18
CCGGACGA: 0.0719
CGCTAGCG: 0.256
TCACGTCA: -0.0895
CGGTTGTA: 0.219
CCATTAAC: -0.114
CCTGGTAG: -0.247
AACTGTGT: -0.123
TATTCGGA: -0.0238
GTCGAGAA: -0.157
AACAATGC: -0.0337
AGAGACGG: -0.0295
CGCTGTAG: 0.135
ACTTTGCC: 0.0145
GACACAGA: -0.0643

Series 4
Target: Sal-like protein 4, full length isoform A (SALL4, Homo sapiens, UniProt Q9UJQ4, residues 1-1053)
UniProt Q9UJQ4, sequence (whole entry, looked up): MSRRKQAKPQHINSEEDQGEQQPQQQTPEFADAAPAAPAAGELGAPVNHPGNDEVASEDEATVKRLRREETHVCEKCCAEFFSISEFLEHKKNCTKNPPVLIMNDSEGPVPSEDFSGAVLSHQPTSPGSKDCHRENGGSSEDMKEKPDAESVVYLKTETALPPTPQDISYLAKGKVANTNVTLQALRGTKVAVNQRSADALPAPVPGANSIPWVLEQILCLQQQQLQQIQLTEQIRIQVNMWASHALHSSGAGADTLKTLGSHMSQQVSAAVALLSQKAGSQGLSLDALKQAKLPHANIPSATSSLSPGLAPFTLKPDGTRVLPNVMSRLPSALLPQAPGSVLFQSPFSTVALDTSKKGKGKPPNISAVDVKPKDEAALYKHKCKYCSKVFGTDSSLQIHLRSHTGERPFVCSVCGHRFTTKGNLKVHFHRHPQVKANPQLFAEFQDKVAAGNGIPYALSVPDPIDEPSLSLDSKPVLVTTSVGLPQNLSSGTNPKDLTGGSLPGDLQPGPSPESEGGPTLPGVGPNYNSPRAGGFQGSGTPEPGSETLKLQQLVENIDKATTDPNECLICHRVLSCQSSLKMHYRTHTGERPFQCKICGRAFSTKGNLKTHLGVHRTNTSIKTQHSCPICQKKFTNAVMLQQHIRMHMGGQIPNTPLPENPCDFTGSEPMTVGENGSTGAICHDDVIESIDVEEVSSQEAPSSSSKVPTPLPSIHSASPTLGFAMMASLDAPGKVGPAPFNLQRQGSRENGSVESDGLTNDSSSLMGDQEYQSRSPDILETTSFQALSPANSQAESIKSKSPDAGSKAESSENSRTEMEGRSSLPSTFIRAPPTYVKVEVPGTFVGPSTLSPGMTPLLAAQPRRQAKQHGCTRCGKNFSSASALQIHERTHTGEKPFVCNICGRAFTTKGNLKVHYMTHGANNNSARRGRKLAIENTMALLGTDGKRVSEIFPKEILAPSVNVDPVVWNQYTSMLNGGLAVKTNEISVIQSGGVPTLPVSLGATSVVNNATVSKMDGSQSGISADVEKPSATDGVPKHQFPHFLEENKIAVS
Technique: universal PBM
Molecule type: double-stranded DNA, one strand shown
Medium: in vitro
Tested at: 600 nM
Notes: 8-mer, flanks averaged, mean of replicates
Reading: higher = stronger binding
Endpoint: E-score
CCGCGTCC: -0.26
ATCGTTTG: 0.134
CGTTACAG: -0.0531
ACGGTGTC: -0.247
AGTATGCG: -0.101
GGCCCCCC: -0.438
GAAAACCA: 0.0359
CGACTTAG: 0.00324
CAACCTAG: -0.074
ACACCTCC: -0.183
ACCACTCG: -0.172
AGCCGACC: -0.311
AGAGTGAC: -0.148
AGTGAGGA: 0.0387
CCCAGCGG: -0.373
GGCGTAGA: -0.0419
ATCGGAGA: -0.0745
CCGAAAGG: 0.0386

Series 5
Target: ABI1, truncated, D143A, DHFR fusion (Arabidopsis thaliana)
Technique: DHFR PCA, deep sequencing
Medium: yeast
Notes: methotrexate growth selection, single substitutions
Together with: (+)-ABA 0.39 µM
Relative to: wild-type fitted maximum
Reading: higher = stronger binding
Endpoint: relative binding score
Parent: PYL1, truncated, DHFR fusion (Arabidopsis thaliana); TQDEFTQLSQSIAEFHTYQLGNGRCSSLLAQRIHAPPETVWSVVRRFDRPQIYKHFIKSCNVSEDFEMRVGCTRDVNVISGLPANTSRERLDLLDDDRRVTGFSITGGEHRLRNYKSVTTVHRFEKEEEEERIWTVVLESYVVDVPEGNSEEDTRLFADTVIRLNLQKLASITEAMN; partner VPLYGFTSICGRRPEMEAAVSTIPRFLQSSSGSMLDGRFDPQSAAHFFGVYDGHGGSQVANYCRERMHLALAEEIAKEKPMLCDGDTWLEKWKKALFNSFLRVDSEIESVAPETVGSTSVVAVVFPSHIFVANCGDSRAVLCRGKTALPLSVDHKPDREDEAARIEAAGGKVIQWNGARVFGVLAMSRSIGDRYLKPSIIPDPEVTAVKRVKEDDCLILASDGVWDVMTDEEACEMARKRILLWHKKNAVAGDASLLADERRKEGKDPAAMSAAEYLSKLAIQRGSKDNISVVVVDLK
A35I: -9.93%
L20S: 52.2%
D65T: 18.2%
Q19M: 18%
L28V: 52.2%
N61V: 64.9%
P146N: -14.2%
D97P: 4%
I57H: -7.74%
R24D: -1.96%
G148H: -0.478%
R111T: -11.5%
K54R: 23.5%
N165F: -15.9%
I133Q: 58.2%
R111L: 7.84%

Series 6
Target: BATF3, bZIP domain (human)
Technique: DHFR protein complementation
Medium: yeast
Notes: single substitutions, most at no-binding floor
Relative to: wild-type JUN-FOS pair
Reading: higher = stronger binding
Endpoint: binding fitness
Parent: JUN, bZIP domain (human); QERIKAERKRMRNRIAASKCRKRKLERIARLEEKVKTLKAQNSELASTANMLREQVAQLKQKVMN; partner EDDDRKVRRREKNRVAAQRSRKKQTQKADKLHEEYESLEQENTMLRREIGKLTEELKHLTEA
V56C: 0.102 natural log
A46V: 0.193 natural log
A46M: 0.267 natural log
I28M: 0.232 natural log
V56Q: -0.265 natural log
L31A: 0.203 natural log
L31R: 0.0927 natural log
L52S: -0.972 natural log
I28S: 0.18 natural log
S43L: 0.175 natural log
L52A: -0.351 natural log
V35F: 0.0169 natural log
A40W: 0.125 natural log
A46F: 0.176 natural log
A29E: 0.0759 natural log
K36I: 0.192 natural log
K39C: 0.0772 natural log

Further values, each from its own experiment
PhoQ, residues 284 288 289 292 302 303 ALVSVA — fold induction (PhoP, residues 12 14 15 18 19 GHCSL (Escherichia coli, UniProt P23836); Sort-seq, measured: YFP reporter; E. coli; PhoQ-PhoP variant library, together with: 10 µM Mg2+; relative to: high Mg2+ state, higher = stronger signaling): 17.2

A few entries again (series 2):
ARYKRKLAINDFG [L8A]: 1.39
ARQKRKLLINDFG [Y3Q]: 0.69
ARYKRKLLIMDFG [N10M]: 1.28
ARYKRKLLINDWG [F12W]: 0.82
ARMKRKLLINDFG [Y3M]: 1.54
AIYKRKLLINDFG [R2I]: 1.34
ARYKRKELINDFG [L7E]: 0.145
YRYKRKLLINDFG [A1Y]: 1.23
ARYKRDLLINDFG [K6D]: 0.641
ARYKRKILINDFG [L7I]: -0.00511
ARYKRKLLINDIG [F12I]: 0.694
ARYKRKLLINDFC [G13C]: 0.925
WRYKRKLLINDFG [A1W]: 0.76
ARYKKKLLINDFG [R5K]: 0.954
